Assay results of several laboratories.
A part holds a random share of what one study measured.

Study 1
Target: Sal-like protein 4, full length isoform A (SALL4, Homo sapiens, UniProt Q9UJQ4, residues 1-1053)
Sequence of UniProt Q9UJQ4 (whole entry, looked up): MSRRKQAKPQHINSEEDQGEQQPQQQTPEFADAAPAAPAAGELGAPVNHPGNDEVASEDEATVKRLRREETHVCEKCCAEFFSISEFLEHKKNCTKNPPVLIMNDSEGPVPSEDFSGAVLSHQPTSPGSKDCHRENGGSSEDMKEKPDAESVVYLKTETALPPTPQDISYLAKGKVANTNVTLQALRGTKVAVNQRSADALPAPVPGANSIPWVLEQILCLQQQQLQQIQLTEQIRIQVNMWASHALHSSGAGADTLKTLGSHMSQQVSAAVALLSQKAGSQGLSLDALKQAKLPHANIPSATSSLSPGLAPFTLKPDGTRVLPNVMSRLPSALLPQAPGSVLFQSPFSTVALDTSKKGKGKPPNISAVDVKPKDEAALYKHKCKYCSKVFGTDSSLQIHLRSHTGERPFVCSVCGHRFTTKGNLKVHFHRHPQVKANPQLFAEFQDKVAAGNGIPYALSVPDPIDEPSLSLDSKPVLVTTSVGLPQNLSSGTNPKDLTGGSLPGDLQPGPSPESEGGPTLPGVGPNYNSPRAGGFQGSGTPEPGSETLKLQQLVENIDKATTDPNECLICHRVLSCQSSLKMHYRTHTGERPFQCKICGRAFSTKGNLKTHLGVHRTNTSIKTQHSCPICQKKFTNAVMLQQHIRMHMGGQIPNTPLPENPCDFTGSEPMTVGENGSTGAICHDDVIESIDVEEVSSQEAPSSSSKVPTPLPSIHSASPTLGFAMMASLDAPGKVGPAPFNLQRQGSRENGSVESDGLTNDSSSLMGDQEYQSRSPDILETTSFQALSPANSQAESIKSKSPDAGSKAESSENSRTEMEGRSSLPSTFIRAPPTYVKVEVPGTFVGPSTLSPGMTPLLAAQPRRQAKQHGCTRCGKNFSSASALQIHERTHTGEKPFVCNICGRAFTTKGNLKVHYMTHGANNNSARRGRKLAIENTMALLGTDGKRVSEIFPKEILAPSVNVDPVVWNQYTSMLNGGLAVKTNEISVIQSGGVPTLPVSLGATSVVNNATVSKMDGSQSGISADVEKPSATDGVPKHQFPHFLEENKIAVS
Method: universal PBM
Form: double-stranded DNA, one strand shown
Matrix: in vitro
Tested at: 600 nM
Setting: 8-mer, flanks averaged, mean of replicates
Direction: higher = stronger binding
Oligonucleotide | E-score
TCACGGAA | 0.102
TACTTTAA | 0.277
ACCCTCCA | -0.125
GCCGCCCC | -0.418

Study 2
Target: Histone acetyltransferase KAT6A, winged helix 2, GST fusion (KAT6A, Homo sapiens, UniProt Q92794, residues 85-181)
Method: protein binding microarray
Form: double-stranded DNA, one strand shown
Matrix: in vitro
Tested at: not given
Setting: 8-mer, flanks averaged, mean of 2 arrays, mostly near background
Reference: not given
Direction: higher = stronger binding
Construct (chain): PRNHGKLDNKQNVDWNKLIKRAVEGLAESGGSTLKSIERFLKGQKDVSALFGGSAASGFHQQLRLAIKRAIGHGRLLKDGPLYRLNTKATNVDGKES
Oligonucleotide | E-score
CGAAGCCA | 0.182
CTACAACA | -0.0201
TCGTATCA | -0.0129
GAATGGCA | 0.0758

Study 3
Target: PABPC1L2, full length, GST fusion (mouse, UniProt A0ABA7IW68)
Method: RNAcompete
Form: RNA
Matrix: in vitro
Tested at: 20 nM
Setting: 7-mer, probes averaged, single round
Reference: mean of 7-mers
Direction: higher = stronger binding
Oligonucleotide | 7-mer Z-score
UCUAGCA | -0.226
GGUCCUA | -0.0826
ACUUUGU | -0.385
AAACGGA | 1.13
AGGCAAU | 0.244

Mixed results
Substance | target | assay | test system | conditions | scale | endpoint | value
PhoQ, residues 284 288 289 292 302 303 SLKLQV | PhoP, residues 12 14 15 18 19 GQALL (Escherichia coli, UniProt P23836) | Sort-seq, refers to: YFP reporter | E. coli | PhoQ-PhoP variant library, with: 10 µM Mg2+ | reference: high Mg2+ state, higher = stronger signaling | fold induction | 18.7

For quick reference, copied from above (study 1):
Oligonucleotide | E-score
ACCCTCCA | -0.125
